Results collected from several papers.
Parts stem from different laboratories: compare values within a part only. Positions count from the first letter of the parent shown.

Block 1
Target: Interferon regulatory factor 7, full length, phosphomimetic (IRF7, Homo sapiens, UniProt Q92985, residues 1-503, S101K/S471D/S472D/S475D/S476D/S477D/S483D/S484D/S487D)
Technique: protein-binding microarray
Molecule type: double-stranded DNA, one strand shown
Medium: in vitro
Tested at: 250 nM
Notes: 60-bp whole probe
With: salmon DNA 0.4 mg/ml
Reference: random background probes
Reading: higher = stronger binding
All sequences stand within: GCCTAGCAC … GTCTTGATTCGCTTGACGCTGCTG
Construct (chain): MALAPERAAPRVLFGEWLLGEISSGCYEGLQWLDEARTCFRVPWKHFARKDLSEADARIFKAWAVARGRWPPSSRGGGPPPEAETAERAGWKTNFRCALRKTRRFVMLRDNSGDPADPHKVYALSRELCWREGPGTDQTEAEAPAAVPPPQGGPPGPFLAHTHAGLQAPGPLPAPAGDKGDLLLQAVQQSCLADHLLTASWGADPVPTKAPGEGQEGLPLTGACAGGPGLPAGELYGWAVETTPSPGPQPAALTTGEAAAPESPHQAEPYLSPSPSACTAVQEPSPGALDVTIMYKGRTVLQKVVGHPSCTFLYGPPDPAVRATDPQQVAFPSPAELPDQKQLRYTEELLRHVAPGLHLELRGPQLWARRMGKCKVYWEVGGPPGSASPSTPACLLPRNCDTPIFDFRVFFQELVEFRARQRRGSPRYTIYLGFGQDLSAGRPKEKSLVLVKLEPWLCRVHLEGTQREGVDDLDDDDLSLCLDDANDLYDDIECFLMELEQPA
| Oligonucleotide | log fluorescence [z-score] |
| --- | --- |
| GACGATCTCTGTTTCGAGACGTGCTAG | 1.54 |
| GACGGTCTCGGGTATCGGGACGTGCTA | 1.17 |
| TTAGGACTGGGGTATCGGTTGGTGCTA | 0.213 |
| GACGATCTCAGTCTCTAGACGTGCTAG | 0.00616 |
| TCACCTCTGCTGCTGGCACTGTGCTAG | -0.473 |
| GACGGGCTCCTTTTCCTGACGTGCTAG | 0.795 |
| TTAGATATCAGTACCGATTAGTGCTAG | 0.401 |
| TACGGTTTCGGACTGGGGACGTGCTAG | 4.16 |

Block 2
Target: ABI1, truncated, D143A, DHFR fusion (Arabidopsis thaliana, UniProt P49597)
Technique: DHFR PCA, dose-response
Medium: yeast
Notes: Hill fit, mean, not affinity
With: (+)-ABA, dose series
Reading: lower = more sensitive
Parent: PYL1, truncated, DHFR fusion (Arabidopsis thaliana, UniProt Q8VZS8); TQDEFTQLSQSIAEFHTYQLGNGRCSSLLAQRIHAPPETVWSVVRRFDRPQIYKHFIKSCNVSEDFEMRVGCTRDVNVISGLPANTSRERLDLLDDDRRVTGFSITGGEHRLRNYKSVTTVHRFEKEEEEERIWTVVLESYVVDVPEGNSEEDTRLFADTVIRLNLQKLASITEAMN
| Substitution | ABA EC50 [µM] |
| --- | --- |
| T86R | 6.91 |
| T154M | 17.1 |
| E130Q | 2.02 |
| E147R | 4.86 |
| E67L | 8.27 |
| A175K | 1.78 |
| V136F | 9.05 |
| V136H | 84.6 |

Mixed results
P1: PafA, mature enzyme, eGFP fusion (Elizabethkingia meningoseptica, UniProt Q9KJX5); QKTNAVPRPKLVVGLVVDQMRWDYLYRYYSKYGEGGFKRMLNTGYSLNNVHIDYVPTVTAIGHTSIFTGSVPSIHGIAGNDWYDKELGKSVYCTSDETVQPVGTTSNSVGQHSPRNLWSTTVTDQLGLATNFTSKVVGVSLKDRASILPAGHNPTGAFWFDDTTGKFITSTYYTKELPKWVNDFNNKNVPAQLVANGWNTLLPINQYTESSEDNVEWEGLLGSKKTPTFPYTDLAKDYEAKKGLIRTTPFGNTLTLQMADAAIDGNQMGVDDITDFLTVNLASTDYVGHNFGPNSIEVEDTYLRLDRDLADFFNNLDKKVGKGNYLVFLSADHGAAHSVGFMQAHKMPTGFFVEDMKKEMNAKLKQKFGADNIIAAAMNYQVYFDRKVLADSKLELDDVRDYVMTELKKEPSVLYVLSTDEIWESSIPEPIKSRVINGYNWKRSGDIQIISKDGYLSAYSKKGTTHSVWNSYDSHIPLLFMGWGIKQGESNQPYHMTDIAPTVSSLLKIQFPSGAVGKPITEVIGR
P2: viral docking peptide; KGVKRKLFAEDSS; partner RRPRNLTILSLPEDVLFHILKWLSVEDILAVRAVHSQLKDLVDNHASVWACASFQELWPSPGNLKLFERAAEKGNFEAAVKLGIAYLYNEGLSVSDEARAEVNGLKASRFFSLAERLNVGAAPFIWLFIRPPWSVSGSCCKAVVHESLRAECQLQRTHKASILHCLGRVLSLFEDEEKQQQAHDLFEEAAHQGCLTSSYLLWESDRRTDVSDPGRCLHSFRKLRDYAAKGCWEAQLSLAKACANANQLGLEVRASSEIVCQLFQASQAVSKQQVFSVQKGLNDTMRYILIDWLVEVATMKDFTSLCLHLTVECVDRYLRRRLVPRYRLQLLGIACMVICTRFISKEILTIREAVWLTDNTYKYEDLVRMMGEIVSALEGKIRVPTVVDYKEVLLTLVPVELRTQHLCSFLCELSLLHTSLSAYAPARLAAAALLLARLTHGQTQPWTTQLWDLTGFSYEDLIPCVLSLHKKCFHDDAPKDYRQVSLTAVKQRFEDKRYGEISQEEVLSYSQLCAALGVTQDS
| Substitution | target | assay | test system | setting | scale | quantity | value |
| --- | --- | --- | --- | --- | --- | --- | --- |
| P1 A390V | tungstate, free oxyanion | microfluidic competitive inhibition | in vitro, cell-free expressed | not given, derived from inhibition constants, unchanged parent 2230 nM | lower = stronger binding | oxyanion analog dissociation constant | 2.37 µM |
| P2 L7S | CCNF, cyclin fold, Cln2 fusion (human) | yeast growth competition, sequencing | yeast | strong parent motif | reference: not given, higher = stronger binding | normalised enrichment score | 0.497 |
| P1 I168V | tungstate, free oxyanion | microfluidic competitive inhibition | in vitro, cell-free expressed | not given, derived from inhibition constants, unchanged parent 2230 nM | lower = stronger binding | oxyanion analog dissociation constant | 2.3 µM |

Repeated from above (mixed results):
| Substitution | target | assay | test system | setting | scale | quantity | value |
| --- | --- | --- | --- | --- | --- | --- | --- |
| P1 A390V | tungstate, free oxyanion | microfluidic competitive inhibition | in vitro, cell-free expressed | not given, derived from inhibition constants, unchanged parent 2230 nM | lower = stronger binding | oxyanion analog dissociation constant | 2.37 µM |
| P2 L7S | CCNF, cyclin fold, Cln2 fusion (human) | yeast growth competition, sequencing | yeast | strong parent motif | reference: not given, higher = stronger binding | normalised enrichment score | 0.497 |
| P1 I168V | tungstate, free oxyanion | microfluidic competitive inhibition | in vitro, cell-free expressed | not given, derived from inhibition constants, unchanged parent 2230 nM | lower = stronger binding | oxyanion analog dissociation constant | 2.3 µM |
